Results of several laboratories.
Every numbered part comes from another study and shows a few of its results, in no order.

Study 1
Target: Sal-like protein 4, full length isoform A (SALL4, Homo sapiens, UniProt Q9UJQ4, residues 1-1053)
Chain of UniProt Q9UJQ4 (whole entry, looked up): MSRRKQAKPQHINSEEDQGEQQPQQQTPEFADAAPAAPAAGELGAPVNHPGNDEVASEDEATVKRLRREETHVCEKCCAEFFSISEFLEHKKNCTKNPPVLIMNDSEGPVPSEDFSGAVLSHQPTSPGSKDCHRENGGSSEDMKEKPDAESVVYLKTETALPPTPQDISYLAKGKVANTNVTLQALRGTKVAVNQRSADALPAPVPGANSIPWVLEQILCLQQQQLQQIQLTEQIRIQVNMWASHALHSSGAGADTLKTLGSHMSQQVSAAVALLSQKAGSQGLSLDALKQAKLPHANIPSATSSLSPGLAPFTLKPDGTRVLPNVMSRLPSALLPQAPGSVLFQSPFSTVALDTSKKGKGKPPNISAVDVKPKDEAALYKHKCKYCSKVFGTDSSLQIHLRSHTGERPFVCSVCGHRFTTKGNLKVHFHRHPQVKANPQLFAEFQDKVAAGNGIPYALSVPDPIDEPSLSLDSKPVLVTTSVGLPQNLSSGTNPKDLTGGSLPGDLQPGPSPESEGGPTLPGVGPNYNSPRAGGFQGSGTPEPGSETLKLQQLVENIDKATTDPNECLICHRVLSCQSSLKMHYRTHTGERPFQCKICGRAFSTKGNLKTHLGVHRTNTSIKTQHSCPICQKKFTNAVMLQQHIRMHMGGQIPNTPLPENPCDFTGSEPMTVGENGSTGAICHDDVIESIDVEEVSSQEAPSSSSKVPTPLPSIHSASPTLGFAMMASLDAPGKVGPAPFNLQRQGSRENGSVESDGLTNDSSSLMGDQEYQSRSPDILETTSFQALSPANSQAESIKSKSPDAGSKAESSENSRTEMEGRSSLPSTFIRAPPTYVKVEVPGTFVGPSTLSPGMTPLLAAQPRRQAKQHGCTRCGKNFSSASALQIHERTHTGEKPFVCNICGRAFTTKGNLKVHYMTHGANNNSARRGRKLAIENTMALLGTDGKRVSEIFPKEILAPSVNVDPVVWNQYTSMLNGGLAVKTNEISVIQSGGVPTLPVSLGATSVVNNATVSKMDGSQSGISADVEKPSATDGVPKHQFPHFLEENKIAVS
Technique: universal PBM
Form: double-stranded DNA, one strand shown
Medium: in vitro
Concentration: 600 nM
Notes: 8-mer, flanks averaged, mean of replicates
Direction: higher = stronger binding
Sequence | E-score
AAATGAAG | 0.224
CATCGCAC | -0.123
CCGAGCGC | -0.285
TCAGCCCA | -0.269
AGCTTATC | -0.0382
GCTTCATA | 0.0921
CGCATACC | -0.047

Study 2
Target: Histone acetyltransferase KAT6A, winged helix 1, GST fusion (KAT6A, Homo sapiens, UniProt Q92794, residues 1-85)
Technique: protein binding microarray
Form: double-stranded DNA, one strand shown
Medium: in vitro
Concentration: not given
Notes: 8-mer, flanks averaged, mean of 2 arrays, mostly near background
Baseline: not given
Direction: higher = stronger binding
Residues (chain): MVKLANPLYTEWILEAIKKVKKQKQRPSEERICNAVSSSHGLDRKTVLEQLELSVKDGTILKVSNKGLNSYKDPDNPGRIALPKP
Sequence | E-score
ATGCCAAC | -0.114
GATCGTGA | -0.18
ACACCTCT | -0.0636
TCGAGTCA | -0.0391

Study 3
Target: Prothrombin, mature alpha-thrombin (F2, Homo sapiens, UniProt P00734)
Technique: aptamer microarray, sandwich
Form: DNA with 2'F-ANA
Medium: in vitro
Concentration: 200 nM
Notes: whole 15-mer aptamer, many near background
Added: Cy3 exosite-II aptamer, 400 nM
Direction: higher = stronger binding
Sequence: GGTTGGTGTGGTTGG
Modification | mean fluorescence intensity [a.u.]
2'F-ANA at 2 6 9 11 14 15 | 97.9
2'F-ANA at 1 2 4 6 8 10 11 12 13 14 | 50.6
2'F-ANA at 1 2 3 10 12 14 | 62
2'F-ANA at 1 3 9 10 13 | 75.4
2'F-ANA at 2 5 11 13 | 56.2

Further values, each from its own experiment
Substance | target | assay | test system | setting | how to read | quantity | result
PhoQ, residues 284 288 289 292 302 303 SSLVEF | PhoP, residues 12 14 15 18 19 TPLRH (Escherichia coli, UniProt P23836) | Sort-seq, refers to: YFP reporter | E. coli | PhoQ-PhoP variant library, added: 10 µM Mg2+ | baseline: high Mg2+ state, higher = stronger signaling | fold induction | 1.04

Excerpt of the above (study 3):
Modification | mean fluorescence intensity [a.u.]
2'F-ANA at 1 3 9 10 13 | 75.4
2'F-ANA at 1 2 4 6 8 10 11 12 13 14 | 50.6
